Measurements collected from several papers.
“And” joins repeats or separate records; there may be more than shown. Numbers after ± are the reported error.
Matrix protein 2 S31N: Matrix protein 2 (Influenza A virus, UniProt P0DOF5, S31N)

CC1OC(OC2C(OC(=O)C34CCC(C)(C)CC3C3=CCC5C6(C)CCC(OC7OC(CO)C(O)C(O)C7O)C(C)(C)C6CCC5(C)C3(C)CC4O)OCC(O)C2O)C(O)C(O)C1OC1OCC(O)C(OC2OCC(O)C(O)C2O)C1O (stereo not drawn) — IC50 (SARS-CoV-2; pseudovirus entry; H1299 ACE2/TMPRSS2+): 650 nM
N#CC1(c2ccc3c(N)ncnn23)OC(COP(=O)(O)OP(=O)(O)OP(=O)(O)O)C(O)C1O (stereo not drawn) — IC100 (SARS-CoV-2; cytopathic effect; Vero C1008, Omicron BA.1; 48 h): 4.88 ± 0.22 µM
CC(=O)Oc1ccc(CCCCCCCCC(=O)c2c(OC(C)=O)cccc2OC(C)=O)cc1OC(C)=O — selectivity index (SARS-CoV-2; HEK293T ACE2, Alpha B.1.1.7; reference: CC50 over EC50): 4.3
CC(C)c1ccc(C(=O)Nc2ccc(CN)cc2)c(O)c1 — inhibition (SARS-CoV-2; viral infection; D614G; 10 µM): > 56%
CC(C)C(=O)OC[C@H]1O[C@@](C#N)(n2ccc(N)nc2=O)[C@H](O)[C@@H]1O — EC90 (SARS-CoV-2; viral replication; Calu-3, Alpha): 6800 ± 400 nM
O=C(NC1CCN(c2ncnc3[nH]cnc23)CC1)c1cccc(NS(=O)(=O)c2ccc(C(F)(F)F)cc2)c1 — ΔTm (Replicase polyprotein 1ab, nsp14 W292A (rep, Severe acute respiratory syndrome coronavirus 2, UniProt P0DTD1, W6217A); thermal shift; SARS-CoV-2): 5.4 °C and 6.1 °C
CC(C)(C)[C@H](NC(=O)NC1(CS(=O)(=O)C(C)(C)C)CCCCC1)C(=O)N1C[C@H]2[C@@H]([C@H]1C(=O)N[C@H](C#N)C[C@@H]1CCNC1=O)C2(C)C — delta Tm (Replicase polyprotein 1ab, main protease H41A (rep, Severe acute respiratory syndrome coronavirus 2, UniProt P0DTD1, H3304A); binder, thermal shift): 13.2 °C
Cc1ncc(CNC23CC4CC(CC(C4)C2)C3)s1 — inhibition (Matrix protein 2 S31N; proton channel activity, inhibitor; Influenzavirus A, S31N mutant; 100 µM): 28%
CCc1nnc(NS(=O)(=O)c2ccc(NC(=O)c3cccc4ccccc34)cc2)s1 — IC50 (SARS-CoV-2; viral entry; Omicron BA.5; 120 h): 1500 nM
O=C(CCCCCCCCCCc1ccc(O)c(O)c1)c1c(O)cccc1O — EC50 (SARS-CoV-2; viral replication, MTT; HEK293T ACE2, Delta B.1.617.2): 7300 nM
CC1OC(OC2C(OC(=O)C34CCC(C)(C)CC3C3=CCC5C6(C)CCC(OC7OC(CO)C(O)C(O)C7O)C(C)(C)C6CCC5(C)C3(C)CC4O)OCC(O)C2O)C(O)C(O)C1OC1OCC(O)C(OC2OCC(O)C(OC3OCC(O)C(O)C3O)C2O)C1O (stereo not drawn) — IC50 (SARS-CoV-2; viral infection; Vero, omicron variant B.1.1.529): 1450 nM
Oc1ccc(CCCCCCCCC(O)c2c(O)cccc2O)cc1O (stereo not drawn) — selectivity index (SARS-CoV-2; HEK293T ACE2, Alpha B.1.1.7; reference: CC50 over EC50): 1.7
CC(C)CC(C(=O)N1CC2(CC1C#N)C(=O)Nc1ccccc12)N(C)C(=O)c1cc2c(F)cc(F)c(F)c2[nH]1 (stereo not drawn) — inhibition (SARS-CoV-2; viral replication, infectious virus; Vero E6-TMPRSS2, Omicron variant; 0.3 µM): 100% and 99.9% and 99.6%
Clc1nc(CNC23CC4CC(CC(C4)C2)C3)ns1 — inhibition (Matrix protein 2 S31N; proton channel activity, inhibitor; Influenzavirus A, S31N mutant; 100 µM): 64%
CCn1ccc(-c2cc(-c3cnn(C)c3)cc([C@@H](C)NC(=O)c3cc(OCCN(C)C)ccc3C)c2)n1 — T115T (ACC) mutation frequency (SARS-CoV-2; WA1 lineage passage 11; concentration not given): 90% and 72.9% and 88.4% and 84.2%

For quick reference, copied from above:
CC1OC(OC2C(OC(=O)C34CCC(C)(C)CC3C3=CCC5C6(C)CCC(OC7OC(CO)C(O)C(O)C7O)C(C)(C)C6CCC5(C)C3(C)CC4O)OCC(O)C2O)C(O)C(O)C1OC1OCC(O)C(OC2OCC(O)C(OC3OCC(O)C(O)C3O)C2O)C1O (stereo not drawn) — IC50 (SARS-CoV-2; viral infection; Vero, omicron variant B.1.1.529): 1450 nM
